Assay results of several laboratories.
Lines come from different studies, so protocols differ. Numbers after ± are the reported error.
Organism: Escherichia coli

| Molecule | test | test system | conditions | MIC |
| --- | --- | --- | --- | --- |
| CSCC[C@H](NC(=O)[C@H](CC(N)=O)NC(=O)[C@@H]1CCCN1C(=O)[C@@H]1CCCN1C(=O)[C@H](CCCNC(=N)N)NC(=O)[C@@H]1CCCN1C(=O)[C@H](CCCNC(=N)N)NC(=O)[C@@H]1CCCN1C(=O)[C@H](CCCNC(=N)N)NC(=O)[C@H](Cc1ccc(O)cc1)NC(=O)[C@H](CC(=O)O)NC(=O)[C@@H]1CCCN1C(=O)[C@H](CCCCN)NC(=O)[C@H](CC(=O)O)NC(=O)[C@@H](N)C(C)C)C(=O)O | alamarBlue | SQ110 | overnight, 37 °C | > 25 µM |
| CC(C)C[C@H](NC(=O)[C@H](CCCNC(=N)N)NC(=O)[C@H](CC(C)C)NC(=O)[C@@H](NC(=O)[C@H](CC(C)C)NC(=O)[C@H](Cc1c[nH]cn1)NC(=O)[C@H](CC(C)C)NC(=O)[C@@H](NC(=O)[C@H](C)N)[C@@H](C)O)C(C)C)C(=O)N[C@@H](CCCNC(=N)N)C(=O)NCC(=O)NCC(=O)O | – | DH5α | 37 °C, ≥90% viability decrease | 10 µM |
| indolicidin | – | ATCC 25922 | – | 2.78 µM |
| CC[C@H](C)[C@H](NC(=O)[C@H](CCCNC(=N)N)NC(=O)[C@H](CCCCN)NC(=O)[C@H](CC(C)C)NC(=O)[C@H](Cc1ccccc1)NC(=O)[C@H](CCCNC(=N)N)NC(=O)[C@H](C)NC(=O)[C@@H](N)C(C)C)C(=O)N[C@H](C(=O)N[C@@H](CCCCN)C(=O)N[C@@H](C)C(=O)N[C@@H](CC(C)C)C(=O)N[C@@H](Cc1ccccc1)C(N)=O)[C@@H](C)CC | – | ATCC 25922 | 1 h, 37 °C, dividing cells in LB | 6.25 µg/mL |
| CC[C@H](C)[C@H](NC(=O)[C@@H]1CCCN1C(=O)[C@H](CCCCN)NC(=O)[C@@H]1CCCN1C(=O)[C@@H]1CCCN1C(=O)[C@@H](NC(=O)[C@@H]1CCCN1C(=O)[C@H](CCCNC(=N)N)NC(=O)[C@@H]1CCCN1C(=O)[C@H](CCCNC(=N)N)NC(=O)[C@H](Cc1ccc(O)cc1)NC(=O)[C@H](CO)NC(=O)CNC(=O)[C@H](CCCCN)NC(=O)[C@H](CC(=O)O)NC(=O)[C@@H](N)C(C)C)[C@@H](C)O)C(=O)N[C@@H](Cc1ccc(O)cc1)C(=O)N[C@@H](CC(N)=O)C(=O)N[C@@H](CCCNC(=N)N)C(=O)N[C@@H](CC(N)=O)C(=O)O | – | JW0013 | 18 h, 37 °C, 12.5% Mueller-Hinton broth | 0.037 ± 0.008 µM |
| CSc1nc(Cl)cc(Sc2nnc(-c3cc(C(F)(F)F)cc(C(F)(F)F)c3)[nH]2)n1 | microbial growth | NR698 | 16 h | 5.2 µM |
| CC[C@H](C)[C@H](NC(=O)[C@@H]1CCCN1C(=O)[C@H](CCCNC(=N)N)NC(=O)[C@@H]1CCCN1C(=O)[C@H](Cc1c[nH]cn1)NC(=O)[C@H](CO)NC(=O)[C@@H](NC(=O)[C@@H]1CCCN1C(=O)[C@H](CCCNC(=N)N)NC(=O)[C@@H]1CCCN1C(=O)[C@H](CO)NC(=O)[C@H](Cc1ccc(O)cc1)NC(=O)[C@@H]1CCCN1C(=O)[C@H](CCCNC(=N)N)NC(=O)[C@@H]1CCCN1C(=O)[C@H](CCCCN)NC(=O)CN)[C@@H](C)O)C(=O)N[C@@H](CCCNC(=N)N)C(=O)N[C@H](C(=O)O)C(C)C | broth microdilution | K12 | 37 °C | > 100 µM |
| CC(C)C[C@H](NC(=O)[C@H](CCCNC(=N)N)NC(=O)[C@@H]1CCCN1C(=O)[C@H](CCCNC(=N)N)NC(=O)[C@@H]1CCCN1C(=O)[C@@H]1CCCN1C(=O)[C@H](CCCNC(=N)N)NC(=O)[C@@H]1CCCN1C(=O)[C@H](CCC(N)=O)NC(=O)[C@@H]1CCCN1C(=O)[C@H](CCCCN)NC(=O)[C@H](Cc1ccc(O)cc1)NC(=O)[C@@H](NC(=O)[C@@H]1CCCN1C(=O)[C@H](CCCNC(=N)N)NC(=O)[C@H](CC(N)=O)NC(=O)[C@H](CC(N)=O)NC(=O)CN)C(C)C)C(=O)O | broth microdilution | BW25113 parental, Mueller-Hinton broth | 18 h, 37 °C | 0.067 ± 0.033 µM |
| CC(C)C[C@@H](N)C(=O)N[C@@H](C(=O)N[C@H](Cc1c[nH]c2ccccc12)C(=O)N[C@H](CCCCN)C(=O)N[C@H](CC(C)C)C(=O)N[C@H](Cc1c[nH]c2ccccc12)C(=O)N[C@H](Cc1c[nH]c2ccccc12)C(=O)N[C@H](CCCNC(=N)N)C(=O)N[C@H](CC(C)C)C(=O)N[C@H](CCCNC(=N)N)C(=O)N[C@H](Cc1c[nH]c2ccccc12)C(=O)N[C@H](CC(C)C)C(=O)N[C@H](CCCCN)C(N)=O)C(C)C | – | ATCC 25922 | 1 h, 37 °C, dividing cells in LB | 50 µg/mL |
| CC[C@H](C)[C@H](N)C(=O)N[C@@H](CCCCN)C(=O)N[C@@H](Cc1c[nH]c2ccccc12)C(=O)N[C@@H](CCCCN)C(=O)N[C@@H](CCCCN)C(=O)N[C@@H](CC(C)C)C(=O)N[C@@H](CC(C)C)C(=O)N[C@@H](CCCNC(=N)N)C(=O)N[C@@H](C)C(=O)N[C@@H](C)C(=O)N[C@@H](CCCCN)C(=O)N[C@@H](CCCNC(=N)N)C(=O)N[C@H](C(=O)N[C@@H](CC(C)C)C(N)=O)[C@@H](C)CC | broth microdilution | K12 | 37 °C | 3.1 µM |
| CC(C)C[C@H](NC(=O)[C@H](CCCNC(=N)N)NC(=O)[C@H](CC(C)C)NC(=O)[C@@H](NC(=O)[C@H](CC(C)C)NC(=O)[C@H](Cc1c[nH]cn1)NC(=O)[C@H](C)NC(=O)[C@@H](NC(=O)[C@@H](N)CO)[C@@H](C)O)C(C)C)C(=O)N[C@@H](CCCNC(=N)N)C(=O)NCC(=O)NCC(=O)O | – | DH5α | 37 °C, ≥90% viability decrease | > 100 µM |
| CC[C@H](C)[C@H](NC(=O)CN)C(=O)NCC(=O)N[C@@H](CCCCN)C(=O)N[C@@H](Cc1ccccc1)C(=O)N[C@@H](CC(C)C)C(=O)N[C@@H](Cc1c[nH]cn1)C(=O)N[C@@H](CO)C(=O)N[C@@H](C)C(=O)N[C@@H](CCCCN)C(=O)N[C@@H](CCCCN)C(=O)N[C@@H](Cc1ccccc1)C(=O)NCC(=O)N[C@@H](CCCCN)C(=O)N[C@@H](C)C(=O)N[C@@H](Cc1ccccc1)C(=O)N[C@H](C(=O)NCC(=O)N[C@@H](CCC(=O)O)C(=O)N[C@H](C(=O)N[C@@H](CCSC)C(=O)N[C@@H](CC(N)=O)C(=O)N[C@@H](CO)C(=O)O)[C@@H](C)CC)C(C)C | bacterial growth | DH5α | 37 °C | 0.01 µM |
| CC[C@H](C)[C@H](NC(=O)[C@H](CCCNC(=N)N)NC(=O)[C@@H](N)CCCNC(=N)N)C(=O)N[C@@H](CCCNC(=N)N)C(=O)N[C@@H](CCCCN)C(=O)N[C@@H](CCCNC(=N)N)C(=O)N1CCC[C@H]1C(=O)N1CCC[C@H]1C(=O)N[C@@H](CCCNC(=N)N)C(=O)N[C@@H](CC(C)C)C(=O)N1CCC[C@H]1C(=O)N[C@@H](CCCNC(=N)N)C(=O)N1CCC[C@H]1C(=O)N[C@@H](CCCNC(=N)N)C(=O)N1CCC[C@H]1C(=O)N[C@@H](CCCCN)C(=O)O | – | JW0368 ΔsbmA | 18 h, 37 °C, 12.5% Mueller-Hinton broth | 0.06 ± 0.014 µM |
| CC[C@H](C)[C@H](NC(=O)[C@H](Cc1c[nH]c2ccccc12)NC(=O)[C@@H](N)CCCNC(=N)N)C(=O)N[C@@H](CCCNC(=N)N)C(=O)N[C@@H](Cc1c[nH]c2ccccc12)C(=O)N[C@H](C(=O)N[C@@H](Cc1c[nH]c2ccccc12)C(=O)N[C@@H](CCCNC(=N)N)C(=O)N[C@@H](CCCCN)C(=O)N[C@@H](CCCCN)C(=O)N[C@@H](CC(C)C)C(=O)N[C@@H](CCCNC(=N)N)C(N)=O)C(C)C | – | ATCC 25922 | 1 h, 37 °C, dividing cells in LB | 50 to 100 µg/mL |
| CC[C@H](C)[C@H](NC(=O)[C@H](CO)NC(=O)[C@H](CC(C)C)NC(=O)[C@H](Cc1ccccc1)NC(=O)CN)C(=O)N[C@@H](CC(C)C)C(=O)N[C@@H](CCCCN)C(=O)N[C@@H](CCCCN)C(=O)N[C@H](C(=O)N[C@@H](CC(C)C)C(=O)N1CCC[C@H]1C(=O)N[C@@H](CCCCN)C(=O)N[C@H](C(=O)N[C@@H](CCSC)C(=O)N[C@@H](C)C(=O)N[C@@H](Cc1c[nH]cn1)C(=O)N[C@@H](CCSC)C(=O)N[C@@H](CCCCN)C(N)=O)C(C)C)C(C)C | broth microdilution | K12 | 37 °C | 12.5 to 25 µM |
| CC[C@H](C)[C@H](NC(=O)[C@H](C)NC(=O)[C@H](CCCCN)NC(=O)[C@H](CC(C)C)NC(=O)[C@H](C)NC(=O)[C@@H](NC(=O)[C@H](Cc1c[nH]cn1)NC(=O)[C@H](CC(C)C)NC(=O)[C@@H](NC(=O)[C@@H](NC(=O)[C@H](CCCCN)NC(=O)[C@H](CCCCN)NC(=O)[C@H](C)NC(=O)[C@H](CO)NC(=O)[C@H](CCCCN)NC(=O)[C@H](Cc1ccccc1)NC(=O)[C@@H](NC(=O)[C@H](CCCCN)NC(=O)[C@H](CC(C)C)NC(=O)[C@H](Cc1ccccc1)NC(=O)[C@H](CO)NC(=O)[C@H](CCCCN)NC(=O)[C@H](Cc1c[nH]c2ccccc12)NC(=O)[C@H](CCCCN)NC(C)=O)[C@@H](C)O)[C@@H](C)O)C(C)C)[C@@H](C)O)C(=O)N[C@@H](CO)C(=O)N[C@@H](CO)C(N)=O | broth dilution | ATCC 25922, Mueller-Hinton broth | 24 h, 37 °C | 16 µg/mL |
| CC[C@H](C)[C@H](NC(=O)[C@@H]1CCCN1C(=O)[C@H](CCCNC(=N)N)NC(=O)[C@@H]1CCCN1C(=O)[C@@H]1CCCN1C(=O)[C@@H](NC(=O)[C@@H]1CCCN1C(=O)[C@H](CCCNC(=N)N)NC(=O)[C@@H]1CCCN1C(=O)[C@H](CC(C)C)NC(=O)[C@H](Cc1ccc(O)cc1)NC(=O)[C@H](CO)NC(=O)CNC(=O)[C@H](CCCCN)NC(=O)[C@H](CC(=O)O)NC(=O)[C@@H](N)C(C)C)[C@@H](C)O)C(=O)N[C@@H](Cc1ccc(O)cc1)C(=O)N[C@@H](CC(N)=O)C(=O)N[C@@H](CCCNC(=N)N)C(=O)N[C@@H](CC(N)=O)C(=O)O | broth microdilution | BW25113 parental, Mueller-Hinton broth | 18 h, 37 °C | 0.197 ± 0.088 µM |
| CC(C)C[C@H](NC(=O)[C@H](CC(C)C)NC(=O)[C@H](CCCCN)NC(=O)[C@H](CC(C)C)NC(=O)[C@H](CC(C)C)NC(=O)[C@H](CCCCN)NC(=O)[C@H](CCCCN)NC(=O)[C@H](CC(C)C)NC(=O)[C@H](CC(C)C)NC(=O)[C@H](CCCCN)NC(=O)[C@H](CC(C)C)NC(=O)[C@H](CC(C)C)NC(=O)[C@@H](N)CCCCN)C(=O)N[C@@H](CCCCN)C(N)=O | – | ATCC 25922, CAMHB | 18 h, 37 °C | 19 µM |

A few entries again:
| Molecule | test | test system | conditions | MIC |
| --- | --- | --- | --- | --- |
| CC[C@H](C)[C@H](NC(=O)[C@H](Cc1c[nH]c2ccccc12)NC(=O)[C@@H](N)CCCNC(=N)N)C(=O)N[C@@H](CCCNC(=N)N)C(=O)N[C@@H](Cc1c[nH]c2ccccc12)C(=O)N[C@H](C(=O)N[C@@H](Cc1c[nH]c2ccccc12)C(=O)N[C@@H](CCCNC(=N)N)C(=O)N[C@@H](CCCCN)C(=O)N[C@@H](CCCCN)C(=O)N[C@@H](CC(C)C)C(=O)N[C@@H](CCCNC(=N)N)C(N)=O)C(C)C | – | ATCC 25922 | 1 h, 37 °C, dividing cells in LB | 50 to 100 µg/mL |
| CC[C@H](C)[C@H](NC(=O)[C@@H]1CCCN1C(=O)[C@H](CCCNC(=N)N)NC(=O)[C@@H]1CCCN1C(=O)[C@H](Cc1c[nH]cn1)NC(=O)[C@H](CO)NC(=O)[C@@H](NC(=O)[C@@H]1CCCN1C(=O)[C@H](CCCNC(=N)N)NC(=O)[C@@H]1CCCN1C(=O)[C@H](CO)NC(=O)[C@H](Cc1ccc(O)cc1)NC(=O)[C@@H]1CCCN1C(=O)[C@H](CCCNC(=N)N)NC(=O)[C@@H]1CCCN1C(=O)[C@H](CCCCN)NC(=O)CN)[C@@H](C)O)C(=O)N[C@@H](CCCNC(=N)N)C(=O)N[C@H](C(=O)O)C(C)C | broth microdilution | K12 | 37 °C | > 100 µM |
| CC(C)C[C@H](NC(=O)[C@H](CCCNC(=N)N)NC(=O)[C@@H]1CCCN1C(=O)[C@H](CCCNC(=N)N)NC(=O)[C@@H]1CCCN1C(=O)[C@@H]1CCCN1C(=O)[C@H](CCCNC(=N)N)NC(=O)[C@@H]1CCCN1C(=O)[C@H](CCC(N)=O)NC(=O)[C@@H]1CCCN1C(=O)[C@H](CCCCN)NC(=O)[C@H](Cc1ccc(O)cc1)NC(=O)[C@@H](NC(=O)[C@@H]1CCCN1C(=O)[C@H](CCCNC(=N)N)NC(=O)[C@H](CC(N)=O)NC(=O)[C@H](CC(N)=O)NC(=O)CN)C(C)C)C(=O)O | broth microdilution | BW25113 parental, Mueller-Hinton broth | 18 h, 37 °C | 0.067 ± 0.033 µM |
